{"data": "Assay results gathered from unrelated publications", "FGR": "Tyrosine-protein kinase Fgr (FGR, Homo sapiens, UniProt P09769)", "4'-phosphopantetheinyl transferase PptT": "4'-phosphopantetheinyl transferase PptT (Mycobacterium tuberculosis, UniProt O33336)", "note": "pIC50: −log10 of the molar value.", "UniProt O33336, sequence (whole entry, looked up)": "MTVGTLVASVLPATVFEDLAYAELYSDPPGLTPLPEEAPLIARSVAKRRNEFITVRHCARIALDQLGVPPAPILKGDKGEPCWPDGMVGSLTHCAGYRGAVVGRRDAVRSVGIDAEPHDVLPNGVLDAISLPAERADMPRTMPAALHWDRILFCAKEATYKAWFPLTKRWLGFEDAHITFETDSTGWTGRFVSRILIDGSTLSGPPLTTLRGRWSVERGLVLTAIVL", "UniProt P09769, sequence (whole entry, looked up)": "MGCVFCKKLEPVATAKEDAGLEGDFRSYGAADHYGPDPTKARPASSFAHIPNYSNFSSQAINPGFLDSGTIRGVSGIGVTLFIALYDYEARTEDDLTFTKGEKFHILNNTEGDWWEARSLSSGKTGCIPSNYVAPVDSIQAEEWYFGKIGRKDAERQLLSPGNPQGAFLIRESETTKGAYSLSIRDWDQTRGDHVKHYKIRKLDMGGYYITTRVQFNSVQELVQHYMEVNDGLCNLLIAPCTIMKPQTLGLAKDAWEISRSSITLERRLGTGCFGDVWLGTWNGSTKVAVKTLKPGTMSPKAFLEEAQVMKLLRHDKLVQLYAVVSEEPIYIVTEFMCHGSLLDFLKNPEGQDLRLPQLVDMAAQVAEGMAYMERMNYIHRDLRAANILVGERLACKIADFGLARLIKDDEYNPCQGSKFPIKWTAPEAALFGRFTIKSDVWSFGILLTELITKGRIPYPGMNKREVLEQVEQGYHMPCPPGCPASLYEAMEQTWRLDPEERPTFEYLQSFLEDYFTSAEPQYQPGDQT", "UniProt P05182, sequence (whole entry, looked up)": "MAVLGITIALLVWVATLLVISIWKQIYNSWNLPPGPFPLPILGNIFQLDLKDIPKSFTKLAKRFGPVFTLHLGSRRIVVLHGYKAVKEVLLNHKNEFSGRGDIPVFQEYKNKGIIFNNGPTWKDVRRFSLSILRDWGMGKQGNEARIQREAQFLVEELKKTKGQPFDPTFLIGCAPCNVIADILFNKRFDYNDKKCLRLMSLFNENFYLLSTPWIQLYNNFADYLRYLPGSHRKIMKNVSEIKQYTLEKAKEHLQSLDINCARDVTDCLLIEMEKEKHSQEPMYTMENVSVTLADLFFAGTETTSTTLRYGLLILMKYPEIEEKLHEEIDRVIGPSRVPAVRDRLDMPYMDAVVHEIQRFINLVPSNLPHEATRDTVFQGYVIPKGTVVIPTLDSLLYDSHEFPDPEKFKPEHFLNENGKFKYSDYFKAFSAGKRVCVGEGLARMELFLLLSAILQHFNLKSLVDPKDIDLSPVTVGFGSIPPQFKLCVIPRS", "UniProt Q8IW41, sequence (whole entry, looked up)": "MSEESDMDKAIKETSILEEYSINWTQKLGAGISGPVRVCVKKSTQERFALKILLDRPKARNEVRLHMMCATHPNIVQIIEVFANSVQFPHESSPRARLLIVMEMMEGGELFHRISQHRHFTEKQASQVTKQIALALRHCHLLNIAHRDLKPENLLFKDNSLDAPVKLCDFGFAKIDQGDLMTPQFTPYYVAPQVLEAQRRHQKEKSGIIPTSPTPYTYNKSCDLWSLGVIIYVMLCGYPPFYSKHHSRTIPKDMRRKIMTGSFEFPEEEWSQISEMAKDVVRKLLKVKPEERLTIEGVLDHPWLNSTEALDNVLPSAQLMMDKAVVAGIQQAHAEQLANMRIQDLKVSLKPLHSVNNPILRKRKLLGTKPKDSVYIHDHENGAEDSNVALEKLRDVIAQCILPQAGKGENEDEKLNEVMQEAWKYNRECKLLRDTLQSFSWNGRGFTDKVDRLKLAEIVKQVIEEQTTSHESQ", "UniProt P42336, sequence (whole entry, unmodified, looked up)": "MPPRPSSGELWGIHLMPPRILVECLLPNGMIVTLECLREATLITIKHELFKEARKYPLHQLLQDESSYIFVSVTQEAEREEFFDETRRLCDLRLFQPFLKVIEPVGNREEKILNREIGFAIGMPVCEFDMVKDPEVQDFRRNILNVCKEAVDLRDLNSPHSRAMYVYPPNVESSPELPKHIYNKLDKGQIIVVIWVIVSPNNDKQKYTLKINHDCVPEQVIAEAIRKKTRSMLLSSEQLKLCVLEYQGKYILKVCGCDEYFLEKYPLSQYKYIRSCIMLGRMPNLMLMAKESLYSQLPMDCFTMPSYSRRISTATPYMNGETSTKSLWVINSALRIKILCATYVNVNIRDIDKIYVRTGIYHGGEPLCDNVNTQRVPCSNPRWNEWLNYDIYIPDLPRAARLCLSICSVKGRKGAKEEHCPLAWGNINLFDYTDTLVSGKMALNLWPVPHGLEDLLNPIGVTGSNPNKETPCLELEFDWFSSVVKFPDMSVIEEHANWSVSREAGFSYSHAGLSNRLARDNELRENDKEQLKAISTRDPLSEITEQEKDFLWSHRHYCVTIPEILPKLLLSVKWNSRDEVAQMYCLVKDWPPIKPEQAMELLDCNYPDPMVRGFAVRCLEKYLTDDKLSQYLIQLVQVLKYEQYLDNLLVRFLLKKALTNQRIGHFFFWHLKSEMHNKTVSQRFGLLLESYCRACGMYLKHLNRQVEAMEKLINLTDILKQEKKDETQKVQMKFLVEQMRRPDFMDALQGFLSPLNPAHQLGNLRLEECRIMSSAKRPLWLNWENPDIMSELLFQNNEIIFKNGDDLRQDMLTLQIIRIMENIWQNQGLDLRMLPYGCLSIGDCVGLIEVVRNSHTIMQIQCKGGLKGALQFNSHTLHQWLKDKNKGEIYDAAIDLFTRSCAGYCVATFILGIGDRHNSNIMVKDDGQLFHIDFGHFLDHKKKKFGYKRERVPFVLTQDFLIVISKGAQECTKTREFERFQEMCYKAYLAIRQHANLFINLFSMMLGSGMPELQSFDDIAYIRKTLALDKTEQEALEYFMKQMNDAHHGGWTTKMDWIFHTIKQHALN"}
{"Structure (SMILES)": "CC(C)C[C@@H]1NC(=O)CNC(=O)[C@H]2CCCN2C(=O)[C@@H](CC(C)C)NC(=O)CNC(=O)[C@H](Cc2ccc(O)cc2)NC(=O)[C@@H](Cc2ccc(O)cc2)NC(=O)[C@@H](CCCCN)NC(=O)[C@H]([C@@H](C)O)NC(=O)[C@@H]2CCCN2C(=O)[C@H](CC(C)C)NC1=O", "test system": "aqueous buffer", "setting": "18 h, pH 7.4", "endpoint": "thermodynamic solubility", "value": "626 µM"}
{"Structure (SMILES)": "Nc1ncc(-c2nc(N3CCOCC3)nc(N3CCOCC3)n2)c(C(F)F)n1", "target or system": "PIK3CA (Homo sapiens, UniProt P42336, H1047Y)", "test": "binding, competition with immobilised ligand", "setting": "10 µM", "endpoint": "remaining binding", "value": "0%"}
{"Structure (SMILES)": "CC[C@@H]1NC(=O)[C@H]([C@@H](C)CC)NC(=O)[C@H](CC(C)C)NC(=O)[C@@H]2CCCN2C(=O)[C@@H](CC(C)C)NC(=O)[C@H]2CCCN2C(=O)[C@@H](Cc2ccc(O)cc2)NC(=O)CSC[C@@H](C(=O)O)NC(=O)[C@H]([C@@H](C)O)NC(=O)[C@H]([C@@H](C)CC)NC(=O)[C@H](C)NC1=O", "test system": "aqueous buffer", "setting": "pH 7.4", "endpoint": "solubility", "value": "777 µM"}
{"Structure (SMILES)": "OC(c1ccc(F)cc1)C(F)(F)CCN1CCC(O)(c2ccc(Cl)cc2)CC1 (racemic)", "target or system": "MDR1", "test system": "MDCK-MDR1", "setting": "2 h", "endpoint": "Papp A→B", "value": "9.4 ×10⁻⁶ cm/s"}
{"Structure (SMILES)": "CCCC[C@H](NC(=O)/C=C/c1ccccc1)C(=O)N[C@H](C=O)C[C@@H]1CCNC1=O", "target or system": "A549", "test": "cell growth or viability, MTT", "setting": "24 h", "endpoint": "CC50", "value": "> 100 µM"}
{"Structure (SMILES)": "COc1ncccc1-c1cnn2ccc(N3CCN(C(=O)OC(C)C)CC3)nc12", "target or system": "FGR", "test": "binding, competition with immobilised ligand", "setting": "1 µM", "endpoint": "remaining binding", "value": "100%"}
{"Structure (SMILES)": "C#Cc1ccc2c(c1)C(c1ccccn1)=NCc1c(-c3cnco3)ncn1-2", "test system": "water", "setting": "80 min, 37 °C", "endpoint": "kinetic solubility", "value": "417 µg/mL"}
{"Structure (SMILES)": "C=CC(O)CO (stereo not shown)", "target or system": "Cytochrome P450 2E1 (Cyp2e1, Rattus norvegicus, UniProt P05182)", "test": "enzyme activity, inhibitor", "test system": "Fischer 344 rat, liver microsomes", "setting": "25 mM, 30 min", "endpoint": "activity vs control", "value": "18%"}
{"Structure (SMILES)": "Cc1nn(C)cc1-c1nc2c(N3CCN(Cc4ccc(Cl)cc4)CC3)c(Cl)cnc2[nH]1", "target or system": "FGR", "test": "binding, competition with immobilised ligand", "setting": "1 µM", "endpoint": "remaining binding", "value": "100%"}
{"Structure (SMILES)": "COCC1=N[C@@]2(O)[C@H](C(=O)N(C)OC)[C@@H](c3ccccc3)[C@]3(c4ccc(OC)cc4)Oc4cc(OC)cc(OC)c4[C@]23N1", "test system": "aqueous buffer", "setting": "6 h, pH 7.4", "endpoint": "kinetic solubility", "value": "> 87 µg/mL"}
{"Structure (SMILES)": "CC[C@H](C)[C@H]1C(=O)N[C@@H]([C@@H](C)O)C(=O)N[C@@H](C)C(=O)N[C@@H](Cc2ccccc2)C(=O)N[C@@H](CC(C)C)C(=O)NCC(=O)N[C@@H](CC(C)C)C(=O)N2CCC[C@@H]2C(=O)N[C@H](Cc2ccc(O)cc2)C(=O)N2CCC[C@H]2C(=O)NCC(=O)N[C@@H](CCCNC(=N)N)C(=O)N1C", "test system": "aqueous buffer", "setting": "18 h, pH 7.4", "endpoint": "solubility", "value": "776 µM"}
{"Structure (SMILES)": "CN1CCCC(Cn2c(=S)[nH]c3ccc(Cl)cc3c2=O)C1 (stereo not shown)", "target or system": "4'-phosphopantetheinyl transferase PptT", "test": "enzyme activity, inhibitor, FP", "endpoint": "pIC50", "value": 4.84}
{"Structure (SMILES)": "CC(C)C[C@H](NC(=O)[C@@H](NC(=O)C1CCCCC1)C(C)C)C(=O)N[C@H](C=O)C[C@@H]1CCCNC1=O", "target or system": "A549", "test": "cell growth or viability, MTT", "setting": "24 h", "endpoint": "CC50", "value": "> 100 µM"}
{"Structure (SMILES)": "CN[C@@H]1C[C@H]2O[C@@](C)([C@@H]1OC)n1c3ccccc3c3c4c(c5c6ccccc6n2c5c31)C(=O)NC4", "target or system": "NCI-H1975", "test": "cell growth or viability, MTT", "setting": "0.4 µg", "endpoint": "viability", "value": "70.8%"}
{"Structure (SMILES)": "CC(C)C(=O)OCc1cc2[nH]c(=S)n(Cc3cccnc3)c(=O)c2cc1Cl", "target or system": "4'-phosphopantetheinyl transferase PptT", "test": "enzyme activity, inhibitor, FP", "endpoint": "pIC50", "value": 4.35}
{"Structure (SMILES)": "CC[C@H](C)[C@H]1C(=O)N[C@@H](Cc2ccc(O)cc2)C(=O)N2CCC[C@H]2C(=O)N[C@H]([C@H](C)O)C(=O)N[C@@H](CC(C)C)C(=O)N[C@@H](C(C)C)C(=O)N[C@@H](C)C(=O)N[C@@H](C)C(=O)N[C@@H](CO)C(=O)N[C@@H](CCC(=O)O)C(=O)N[C@H](CC(=O)O)C(=O)N[C@H](C(=O)O)CSSC[C@H](N)C(=O)N1C", "test system": "aqueous buffer", "setting": "18 h, pH 7.4", "endpoint": "solubility", "value": "676 µM"}
{"Structure (SMILES)": "O=C[C@H](C[C@@H]1CCCNC1=O)NC(=O)[C@@H](NC(=O)/C=C/c1ccccc1)c1ccccc1", "target or system": "A549", "test": "cell growth or viability, MTT", "setting": "24 h", "endpoint": "CC50", "value": "> 100 µM"}
{"Structure (SMILES)": "[2H]c1c([2H])c([C@]2([2H])CCCN2C(=O)C(C)(C)Oc2ccc3cn[nH]c3c2)c([2H])c([2H])c1C([2H])([2H])[2H]", "target or system": "MAPKAPK5 (Homo sapiens, UniProt Q8IW41)", "test": "binding, competition with immobilised ligand", "setting": "1 µM", "endpoint": "remaining binding", "value": "75%"}
{"Structure (SMILES)": "CONC(=O)[C@H]1[C@@H](O)[C@@]2(O)c3c(OC)cc(OC)cc3O[C@@]2(c2ccc(OC)cc2)[C@@H]1c1ccccc1", "target or system": "A549-ACE2", "test": "cell growth or viability, ATP luminescence", "setting": "48 h", "endpoint": "CC50", "value": "0.2 µM"}
